# Experimental data collected from several papers.
# By UniProt entry, the sequences of proteins in these tests, tags left out.
# UniProt Q12809, whole entry: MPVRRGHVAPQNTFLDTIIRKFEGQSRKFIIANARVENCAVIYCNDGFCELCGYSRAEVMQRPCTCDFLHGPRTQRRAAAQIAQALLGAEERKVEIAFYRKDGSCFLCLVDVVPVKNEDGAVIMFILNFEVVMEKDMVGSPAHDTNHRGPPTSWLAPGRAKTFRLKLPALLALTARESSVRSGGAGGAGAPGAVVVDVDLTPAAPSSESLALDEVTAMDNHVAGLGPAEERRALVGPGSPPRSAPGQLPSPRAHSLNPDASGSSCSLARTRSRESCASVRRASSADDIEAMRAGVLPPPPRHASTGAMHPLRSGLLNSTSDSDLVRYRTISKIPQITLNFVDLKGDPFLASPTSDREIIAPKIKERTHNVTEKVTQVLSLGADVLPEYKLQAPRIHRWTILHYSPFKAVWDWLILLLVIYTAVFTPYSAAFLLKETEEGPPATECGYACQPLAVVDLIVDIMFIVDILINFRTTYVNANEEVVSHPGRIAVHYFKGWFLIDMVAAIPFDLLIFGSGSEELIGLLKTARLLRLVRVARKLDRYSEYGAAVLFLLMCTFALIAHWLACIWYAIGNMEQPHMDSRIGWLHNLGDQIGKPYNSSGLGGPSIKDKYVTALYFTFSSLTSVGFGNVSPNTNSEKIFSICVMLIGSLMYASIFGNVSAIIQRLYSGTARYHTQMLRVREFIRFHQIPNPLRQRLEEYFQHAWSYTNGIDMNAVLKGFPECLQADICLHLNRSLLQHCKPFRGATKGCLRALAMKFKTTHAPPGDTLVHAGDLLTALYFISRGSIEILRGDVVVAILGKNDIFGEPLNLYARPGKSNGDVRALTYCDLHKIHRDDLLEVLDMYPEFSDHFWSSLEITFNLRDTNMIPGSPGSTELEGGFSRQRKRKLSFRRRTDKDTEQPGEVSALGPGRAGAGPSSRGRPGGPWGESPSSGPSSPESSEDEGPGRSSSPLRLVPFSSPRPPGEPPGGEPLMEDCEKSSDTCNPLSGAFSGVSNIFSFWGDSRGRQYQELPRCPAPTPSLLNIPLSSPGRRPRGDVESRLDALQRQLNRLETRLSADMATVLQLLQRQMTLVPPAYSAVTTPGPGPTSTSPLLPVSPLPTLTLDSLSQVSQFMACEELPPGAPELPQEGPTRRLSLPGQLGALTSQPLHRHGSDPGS
# Lines come from different studies, so protocols differ. pIC50, pKi: −log10 of the molar value.
# Target: Voltage-gated inwardly rectifying potassium channel KCNH2 (KCNH2, Homo sapiens, UniProt Q12809)
Structure (SMILES),assay,system,conditions,scale,measurement,result
Cc1cccc2c1[nH]c1c(-c3ccc(Cl)c(Cl)c3)nc(C(=O)NCCNCCO)cc12,"ion current, inhibitor",,,,pIC50,5.89
Cc1n[nH]c(C)c1CCOC(=O)c1cccc2c1oc(=O)n2C,"potassium current, inhibitor",,,,pIC50,< 4.30
CC(=O)Nc1ccc2c3c(cccc13)C(=O)N(CCCCN1CCN(CCCCN3C(=O)CN(/N=C/c4ccc(-c5ccc(Cl)cc5)o4)C3=O)CC1)C2=O,,,,,pKi,6.49
O=C(NCCNCCO)c1cc2c([nH]c3ccccc32)c(-c2cc(Cl)c(Cl)c(Cl)c2)n1,"ion current, inhibitor",,,,pIC50,5.68
CCOc1ccccc1Nc1nnc(SCC(=O)Nc2cc(F)ccc2F)s1,inhibitor,,,,pIC50,< 4.10
CC(=O)Nc1ccc2c3c(cccc13)C(=O)N(CCCCCCN1CCN(CCCCN3C(=O)CN(/N=C/c4ccc(-c5ccc(Cl)cc5)o4)C3=O)CC1)C2=O,probe binding,,10 µM,reference: probe without hERG,fluorescence enhancement,~10 fold
O=C(NCCNCCO)c1cc2c([nH]c3ccccc32)c(-c2ccc(Cl)c(Cl)c2)n1,"ion current, inhibitor",,,,pIC50,5.49
CC(=NN=c1[nH]c2cc(F)c(F)cc2n1C)c1ccc(F)cn1,"potassium current, inhibitor, manual patch clamp",,,,pIC50,5.95
CN(C)S(=O)(=O)c1ccc(NCCCCCCN2CCC(Nc3nc4ccccc4n3Cc3ccc(F)cc3)CC2)c2nonc12,"binding, radioligand displacement",hERG membranes,with: 9 nM [3H]dofetilide,,pIC50,6.80

# Repeated from above:
Structure (SMILES),assay,system,conditions,scale,measurement,result
O=C(NCCNCCO)c1cc2c([nH]c3ccccc32)c(-c2cc(Cl)c(Cl)c(Cl)c2)n1,"ion current, inhibitor",,,,pIC50,5.68
